Published values of several laboratories.
Each numbered part is a random draw from the data of one study; scales do not carry over between parts.

Block 1
Target: Ras GTPase-activating protein-binding protein 1, RRM domain (G3BP1, Homo sapiens, UniProt Q13283)
UniProt Q13283, sequence (whole entry, looked up): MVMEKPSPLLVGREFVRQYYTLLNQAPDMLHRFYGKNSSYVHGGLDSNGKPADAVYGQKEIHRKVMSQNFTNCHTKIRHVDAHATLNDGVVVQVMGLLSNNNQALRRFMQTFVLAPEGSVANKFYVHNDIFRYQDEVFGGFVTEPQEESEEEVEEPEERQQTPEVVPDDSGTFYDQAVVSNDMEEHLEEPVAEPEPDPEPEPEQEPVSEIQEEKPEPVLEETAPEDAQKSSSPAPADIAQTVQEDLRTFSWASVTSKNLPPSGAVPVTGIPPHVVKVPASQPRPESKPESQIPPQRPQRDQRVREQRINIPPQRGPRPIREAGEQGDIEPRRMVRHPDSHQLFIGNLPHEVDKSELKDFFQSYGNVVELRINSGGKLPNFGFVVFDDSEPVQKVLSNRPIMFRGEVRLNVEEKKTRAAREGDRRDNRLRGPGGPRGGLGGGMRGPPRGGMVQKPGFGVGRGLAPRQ
Technique: RNA Bind-n-Seq
Molecule type: RNA
Sample: in vitro
Concentration: 1 µM
Notes: whole 134-nt RNA, ends assumed
Together with: 150 mM KCl
Reference: input library
Reading: higher = stronger binding
Constant ends, left off below: GGGAGUUCUACAGUCCGACGAUC … UGGAAUUCUCGGGUGUCAAGG
Strand	log2 enrichment
ACCAUGCAGGUGGGCAUCUUUGGGAAGUGGGGCAAGGGGGGGAUAGGGAGGGGGGUAACACUAUGGGAACAGGUGGUCCCAGGUCGUUUC	0.968
GUCCUGUGCUACACAUCGUAUGUACCGAAUCGGAAAAAAGGGGAAAAAAGGAAAAAAGGAAAGUAUUAUGUUACGCCGUUCGGAUCUGCA	0.0555
GCGGACCGAGAAAGUCGUUACGAGGAAGAAGAAGAACAAAGUCGAAGUAUGAGCCGGAAGAGGAAGGCAUCUGUGCACAGUUCGGGCCGU	-0.0206
CUCAAGUCCUGUGCUACACAUCGUAUGUACCGAAUCGGCCGGGCCGGGGCCGGAAAGUAUUAUGUUACGCCGUUCGGAUCUGCACUUCCA	-0.458
UGGGAGGUGGAUUUUAUUUAUUUUUUUAGCUCAUUUCCAGGGGUGGGAAUUUUUUUUUAAUAUGUGUCAUGAAUAAAGUUGUUUUUGAAA	1.44
GCAGGAAGUAAAAACAAAUGGAAAUGCUUCGGAUAGUGGCAGGGGUGGGGGUUGCUAAGUAAAGGGUGGGAUGGGAGUGGGUAAAGAGUU	1.27
GGGACGUCAGCAUCGGCAUCAAGUGUGCCCCUGGAGUGGUAGGCCCCGCCGAAGCUGACAUCGACUUCGACAUCAUCCGCAAUGACAAUG	-0.378
CUCAAGUCCUGUGCUACACAUCGUAUGUACCGAAUCGGGGUGGGGUGGGGUGGGAAAGUAUUAUGUUACGCCGUUCGGAUCUGCACUUCC	0.196
AAGUCCUGUGCUACACAUCGUAUGUACCGAAUCGGGAAAAAGGGUGGGAAAAAGGGAAAGUAUUAUGUUACGCCGUUCGGAUCUGCACUU	0.512

Block 2
Target: Hepatocyte nuclear factor 3-alpha (Foxa1, Mus musculus, UniProt P35582, residues 1-468, full length assumed)
Technique: EMSA with sequencing
Molecule type: double-stranded DNA, one strand shown
Sample: in vitro
Concentration: 10 and 20 nM
Notes: whole designed probe, mean of two concentrations, ends assumed
Reference: negative control set to 0
Reading: higher = stronger binding
Constant ends, left off below: GTGAGCGGTGCCCATTGATGGGGAAC … TTTCACTGGGATCGTGGGGAC
Target sequence (chain): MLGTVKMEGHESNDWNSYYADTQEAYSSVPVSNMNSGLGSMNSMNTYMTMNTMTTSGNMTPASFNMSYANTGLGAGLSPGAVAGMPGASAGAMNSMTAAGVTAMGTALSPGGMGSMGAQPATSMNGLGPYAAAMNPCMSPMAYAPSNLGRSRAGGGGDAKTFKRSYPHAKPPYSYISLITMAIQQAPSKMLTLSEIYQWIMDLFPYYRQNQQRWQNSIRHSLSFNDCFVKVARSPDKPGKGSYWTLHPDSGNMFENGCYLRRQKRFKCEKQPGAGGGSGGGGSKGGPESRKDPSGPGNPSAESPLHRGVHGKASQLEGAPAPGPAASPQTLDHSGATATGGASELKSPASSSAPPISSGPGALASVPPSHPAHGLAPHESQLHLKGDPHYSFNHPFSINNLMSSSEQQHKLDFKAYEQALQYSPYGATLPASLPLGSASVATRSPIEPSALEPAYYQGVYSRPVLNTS
Strand	normalised bound fraction
AGCTGGATGACCCTGGCCCGAAAGTCACAGTTCAGTTGCCTTATTCCTAGTTCAGGCTTACTATCTAGAACCTCATGCTAGCTTAGGTTGCATGTTTACATTGCTGCAGTGTCTTTACTGGAAGCTTAGTTGGATCGAAATGGACACCGAGATGGAGATGCTTCTGGCTAGATTTCGCAGAACCCCAGGAGAC	0.356 ratio
CCTTTGGGTTATTCACCTAGATCCCTTAAGGTTTAAAATCAATTCTACAGGGACTTTTGAACTTAGACTTTCACTCCATATGTTAGGACTTATAAATTACATTATAGTTTGCTGTTAACTTAGCTGTTTATGTAGGTGTTCAAAGCTACATGAACGGCGAACTATAAGGTAATTTAGAAGCTTTCCCAAGACA	-0.0016 ratio
ATTACCTATCTTCATTGCAGTTTTCTATGGCTGTATAAATGGAGTACTCTCTTGACACAGGAAGGATGATAATACATTTTTGCTTATTTACTTGTTTACTTTTTCTTTTAATAGGATTGTGCATATGCTAAATGAAGTCCTTAGTAGTATTCAGAAAATCTGCCATCTTCTTTTGATTCACAGGATGCTTTTA	0.399 ratio
GAATCTACAGACTGGTGATTGTAAAGATTGTTCTAGCTTTTACTATTCTATACAGTGTTCTAAATATGGAGTAGGAAGAGATTTATTGGACAATGTAAACATATAGTCTGAAACTAAGGCTGTAATACTCATACTGTTTATAGCTGCCAACAATTTCTTCCAACAAAAGGGTTAGTAAAATTTGGTCAATAGT	0.404 ratio
CAGGAGCCTAGCCCTGTCTTTCCTCTGAGAGAAATGGTTTAGTACTTGCTAATTCCATGTTTCTGGCAACTTTATAGAACATAACTCCACAAAGTAATCTAGAATTGATTGTAATTCACTGACAGCTCACAAATCTCCATTCCAGAGAGACTTTCCCTGACTTCTGTATTTAAAGCAGCACGACCCCTCCCCT	-0.07 ratio

Block 3
Target: RNA binding protein fox-1 homolog 2, RRM domain, GST-SBP tag (RBFOX2, Homo sapiens, UniProt O43251-10, residues 100-194)
Technique: RNA Bind-n-Seq
Molecule type: RNA
Sample: in vitro
Concentration: 365 nM
Notes: natural RNA segment, single round, ends assumed
Reference: no-protein control
Reading: higher = stronger binding
Constant ends, left off below: GGGAGUUCUACAGUCCGACGAUC … UGGAAUUCUCGGGUGCCAA
Construct (chain): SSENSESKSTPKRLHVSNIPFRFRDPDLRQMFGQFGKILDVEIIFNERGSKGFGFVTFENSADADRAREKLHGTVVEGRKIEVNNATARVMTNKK
Strand	RBNS enrichment (R)
GGAAUCUCAAACUCCCUUUGGCCCUGAACCAGGGCCAGAUAAGGAACAGCUCGGGCCACUCUUCUGAAGGCCAACGUGGAGGAAAGGGAGCAGCCAGCCAUUUGGGAGAA	0.375
GCCUUCCUGUCAUAUUUUAGCCAAAACAACUGGUUAUAUGCCUCCCUUGCAGCAAGCACUACAAUGUAUGUGAUCGUCAAUGUGAAUAGCUUAGAAUACUGCAAAGGAUA	0.497
UACUUUUUAAGCUGUUGUUAUGCAAAUCUUGAAGAAGUUACUGGCAUGGUUGUUGCAUAUAGUAAAACUGAGAGUAAUUCACCUGUGAAUCUGCAUAUUAAUUACCUGAU	3.23
CCUAAUUCAUCAUAUUGGUUUAAGCAUGCUGCCUCCUGAGAGCCACAGUGUCAUAUACAGAUACUUCCGCAGGUCCUUAGAGUUCAAAGGGUUUUAAUCCAGGACAUAAG	7.49
AUCCUGUUAUACUGAGAUCCUAUUGCAUUUUCACCAAAAAUAUUGAAACUUACCAGAAUUGAUUUUGAAGAGGUUUAAUACUGUGUAUCUCCCAGACUAGCAAAAUGAUU	0.598
UUAGUCAGUUUUUAGGGGAUUUUCGGGGAGGGGAAAUAGGUAAUGUAUGGAGCAUUUUCACUUCUAAAUAGUUAGAUACAGAAAUUAAGUGCAUUGUAUCUUUUUCAUAA	1.4
UGUGAACACAAAGUCUGACUUGAAGAUUCUCUGCAAUGAAGAGAAUUCAUUCAUUCACUCUGCUCAAGACUCCACUGGGCCAAGAGAUGGAAGAACAAACAAAAAGGACU	0.283
UCUGAAAACUAAGCCCUCAAUGAACGACUUAAUUAACUCACUGCAUUAGUCUCCAUAAUUGGUCUCGCUGGACACGUGCACAGCUGUGGCUCUCAGCAGCUUCCCUGCAG	0.435

Block 4
Target: RING finger protein unkempt homolog, zinc fingers 1-6, GST-SBP tag (UNK, Homo sapiens, UniProt Q9C0B0, residues 30-357)
Technique: RNA Bind-n-Seq
Molecule type: RNA
Sample: in vitro
Concentration: not given
Notes: RNA with constant flanks, human and mouse sites, ends assumed
Reference: input RNA pool
Reading: higher = stronger binding
Constant ends, left off below: GGGAGUUCUACAGUCCGACGAUC … CAACAGAGGAUUGAGCAUCA
Residues (chain): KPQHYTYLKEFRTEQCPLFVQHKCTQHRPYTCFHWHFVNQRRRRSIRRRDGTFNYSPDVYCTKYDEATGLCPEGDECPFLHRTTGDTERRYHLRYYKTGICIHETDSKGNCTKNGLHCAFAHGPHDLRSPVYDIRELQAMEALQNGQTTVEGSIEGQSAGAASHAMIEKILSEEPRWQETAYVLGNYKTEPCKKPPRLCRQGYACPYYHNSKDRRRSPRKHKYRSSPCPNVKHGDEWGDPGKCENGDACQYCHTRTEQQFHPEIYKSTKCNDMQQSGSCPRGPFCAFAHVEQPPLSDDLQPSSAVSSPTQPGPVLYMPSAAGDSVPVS
Strand	bound/input enrichment [ratio]
GAGUGCCUGAGCAACAUCCGCGAGUUCCUGCGCGGCUGCGGGGCUUCCCUGCGGCUGGAGACGUUUGAUGCAAAUGAUUUGUAUCAGGGGCAGAAUUUUAACAAGGUCCUCAGUUCCUUA	0.138
GAGGAAGGCUGGUGGAAAGAAGACCAACUGCAGAGAUUGGGCGAGACGUCUAGAGGCGGGGCUGAUGAGGAAGCCUGACAUUUCCCUUGACCGAGAGGAUCGUGAUGCAUUUCAGAUGAG	0.223
AGCUUGGAUUCUAAGGCGAAUAUUGUACAUGGUCUGUCAGUCUUGGAAAUCUGUCUUAUAAUAGCAAUGAAACAUUUAAAUGACAUAUAUGAAGAGGAGCCCUUUAAUUUUCAAAUGGUG	3.89
CAUGUAGUUUGUUUUUAAUUUCAAGCAAAAUCUUACUGUACUUGAAUGUGCCCUGUUUUGUUAGCACACCUAGACUUGCUGUAACUGUACUCAUGUCCCAGUAUGUACGUUCUUUCUAUG	9.46
GCUGUUCCCUUCUUUAGCUCCCUUCAGUAUAGCAGAAGAACAGAAAGUUCAAGGUCUACUGAGGGUCACAUGCCCAUUAAUCUAGCCCUGGAGGGGAUAAGGAGGCACUGCUUCCCUUUA	0.424
UUCUCCUCCUCUUCCUCCUCCUCCUCUGGUCCUAGGAGUUUUUACCCUCGCCAGGGCGCUACUAGCAAGUACCUGAUUGGAUGGAAAAAACCCGAAGGAACCAUAAACUCCGUGGGAUUU	0.29
AAUGCCAAAGGUUUGGCUGGAAUAUCAGGAGAGAGGAUUUGGGUAGAACUGAAGAAAAUUCUUACUGGUGACCAUGUAAACCAUUUGAUCCACCUGAUCUAUGAUCUUGGUGUGGCUCCU	0.0852
ACAGAUGAAGCUGACCUGGUUCUUGCAAAAGAAGCUAACGUGAAGUGUCCACAGAUUGUGAUAGCAUUUUAUGAAGAGAGACUGACGUGGCACGCAUAUCCAGAGGAUGCGGAAAACAAA	0.215

For quick reference, copied from above (block 1):
Strand	log2 enrichment
ACCAUGCAGGUGGGCAUCUUUGGGAAGUGGGGCAAGGGGGGGAUAGGGAGGGGGGUAACACUAUGGGAACAGGUGGUCCCAGGUCGUUUC	0.968
GUCCUGUGCUACACAUCGUAUGUACCGAAUCGGAAAAAAGGGGAAAAAAGGAAAAAAGGAAAGUAUUAUGUUACGCCGUUCGGAUCUGCA	0.0555
